Measured values collected from several papers.
Lines come from different studies, so protocols differ. ± gives the spread as reported.

By UniProt entry, the sequences of proteins in these tests, tags left out.
UniProt P09769, whole entry: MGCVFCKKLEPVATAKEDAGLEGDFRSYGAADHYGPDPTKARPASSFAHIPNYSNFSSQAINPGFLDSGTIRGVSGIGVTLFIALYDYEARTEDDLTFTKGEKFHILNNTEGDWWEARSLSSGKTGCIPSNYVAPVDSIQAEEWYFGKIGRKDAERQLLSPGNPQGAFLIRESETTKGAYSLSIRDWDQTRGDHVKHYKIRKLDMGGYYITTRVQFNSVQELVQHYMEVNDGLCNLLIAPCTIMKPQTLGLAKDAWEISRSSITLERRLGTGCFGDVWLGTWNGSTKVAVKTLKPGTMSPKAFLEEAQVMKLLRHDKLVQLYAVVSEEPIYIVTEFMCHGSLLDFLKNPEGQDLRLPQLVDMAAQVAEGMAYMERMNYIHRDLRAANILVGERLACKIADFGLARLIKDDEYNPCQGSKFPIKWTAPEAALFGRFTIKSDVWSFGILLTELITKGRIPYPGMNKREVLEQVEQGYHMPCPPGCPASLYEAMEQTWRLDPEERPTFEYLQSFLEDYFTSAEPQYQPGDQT
UniProt P51532, whole entry: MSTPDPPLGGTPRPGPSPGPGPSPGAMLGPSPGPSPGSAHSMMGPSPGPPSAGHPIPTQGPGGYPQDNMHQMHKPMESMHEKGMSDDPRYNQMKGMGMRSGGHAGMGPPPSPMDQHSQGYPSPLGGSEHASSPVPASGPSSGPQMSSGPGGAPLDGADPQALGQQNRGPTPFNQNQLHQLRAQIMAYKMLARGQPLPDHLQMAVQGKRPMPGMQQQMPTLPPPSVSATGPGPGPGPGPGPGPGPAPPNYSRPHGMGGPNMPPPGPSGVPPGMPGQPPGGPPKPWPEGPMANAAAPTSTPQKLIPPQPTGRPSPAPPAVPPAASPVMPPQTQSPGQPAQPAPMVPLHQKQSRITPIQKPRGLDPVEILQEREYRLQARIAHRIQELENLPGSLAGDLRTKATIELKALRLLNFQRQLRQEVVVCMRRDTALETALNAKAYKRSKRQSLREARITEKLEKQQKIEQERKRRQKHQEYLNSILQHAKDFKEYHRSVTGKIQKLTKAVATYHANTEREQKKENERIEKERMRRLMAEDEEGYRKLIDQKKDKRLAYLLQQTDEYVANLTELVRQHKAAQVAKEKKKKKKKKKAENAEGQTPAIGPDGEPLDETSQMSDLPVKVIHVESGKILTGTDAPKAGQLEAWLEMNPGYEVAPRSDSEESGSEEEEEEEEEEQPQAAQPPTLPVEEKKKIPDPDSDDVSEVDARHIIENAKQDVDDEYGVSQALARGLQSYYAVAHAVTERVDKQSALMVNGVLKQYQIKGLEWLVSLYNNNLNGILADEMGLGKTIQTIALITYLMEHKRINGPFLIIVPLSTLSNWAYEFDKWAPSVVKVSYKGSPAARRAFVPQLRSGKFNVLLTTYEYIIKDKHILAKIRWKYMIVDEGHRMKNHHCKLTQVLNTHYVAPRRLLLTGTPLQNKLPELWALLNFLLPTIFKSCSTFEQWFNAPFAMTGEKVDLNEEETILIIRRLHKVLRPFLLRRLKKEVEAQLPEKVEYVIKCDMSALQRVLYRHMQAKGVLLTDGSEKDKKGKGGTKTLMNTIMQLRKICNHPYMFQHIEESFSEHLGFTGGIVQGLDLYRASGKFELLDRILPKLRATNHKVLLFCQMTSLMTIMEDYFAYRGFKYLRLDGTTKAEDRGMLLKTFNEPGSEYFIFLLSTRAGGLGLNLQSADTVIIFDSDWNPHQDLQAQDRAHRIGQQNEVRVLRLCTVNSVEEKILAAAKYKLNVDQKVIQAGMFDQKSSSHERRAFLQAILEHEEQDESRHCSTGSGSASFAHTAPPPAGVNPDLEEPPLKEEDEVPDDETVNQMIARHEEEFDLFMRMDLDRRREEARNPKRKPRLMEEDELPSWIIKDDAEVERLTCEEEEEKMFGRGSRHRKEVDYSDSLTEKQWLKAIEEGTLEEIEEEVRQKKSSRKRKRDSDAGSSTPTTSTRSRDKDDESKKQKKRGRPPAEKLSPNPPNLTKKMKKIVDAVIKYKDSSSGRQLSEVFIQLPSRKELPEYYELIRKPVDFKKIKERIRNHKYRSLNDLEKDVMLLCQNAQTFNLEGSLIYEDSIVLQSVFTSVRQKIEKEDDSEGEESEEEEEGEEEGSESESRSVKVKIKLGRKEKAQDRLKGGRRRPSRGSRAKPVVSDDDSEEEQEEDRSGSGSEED
UniProt P10636, whole entry, looked up: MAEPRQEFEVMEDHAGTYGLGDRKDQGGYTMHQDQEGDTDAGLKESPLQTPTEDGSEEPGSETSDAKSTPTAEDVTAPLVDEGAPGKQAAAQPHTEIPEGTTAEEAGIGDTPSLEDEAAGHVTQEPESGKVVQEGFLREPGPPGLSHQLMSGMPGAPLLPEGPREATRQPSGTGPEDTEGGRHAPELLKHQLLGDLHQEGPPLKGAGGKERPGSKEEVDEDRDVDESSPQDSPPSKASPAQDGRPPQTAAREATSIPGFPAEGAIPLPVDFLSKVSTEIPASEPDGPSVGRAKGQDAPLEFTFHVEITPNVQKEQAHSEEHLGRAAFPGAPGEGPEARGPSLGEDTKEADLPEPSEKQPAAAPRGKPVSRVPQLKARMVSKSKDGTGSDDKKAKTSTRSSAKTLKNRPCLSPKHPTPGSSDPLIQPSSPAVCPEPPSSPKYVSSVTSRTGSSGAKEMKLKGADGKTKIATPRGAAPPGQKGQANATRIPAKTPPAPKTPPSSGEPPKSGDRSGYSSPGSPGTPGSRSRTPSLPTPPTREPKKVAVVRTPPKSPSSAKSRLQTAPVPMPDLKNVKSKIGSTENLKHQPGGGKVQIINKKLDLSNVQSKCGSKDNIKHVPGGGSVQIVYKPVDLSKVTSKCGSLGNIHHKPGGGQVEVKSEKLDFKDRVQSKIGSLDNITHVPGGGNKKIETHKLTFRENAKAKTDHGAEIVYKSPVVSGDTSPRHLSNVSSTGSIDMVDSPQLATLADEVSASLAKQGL

| SMILES | tested on | test | system | conditions | scale | endpoint | result |
| --- | --- | --- | --- | --- | --- | --- | --- |
| Cc1cccc(NC(=O)c2nn(Cc3cnc[nH]3)c3c2CN(C(=O)c2ccc[nH]2)CC3)c1 | IDH1 R132G AML cells | CD45/SSC flow cytometry |  | 3 µM, 7 days | reference: DMSO | granulocytic/monocytic cell fraction | 1.3 ± 0.1 fold |
| Cc1ccc([C@H](CC(=O)O)NC(=O)Nc2c(O)c(C)cn(Cc3ccccc3Cl)c2=O)cc1 |  | item: hCD45+ hCD19+ | LAX7R xenograft, NSG mouse, spleen | 60 mg/kg, 36 h |  | B-ALL cells | no effect |
| O=C1C=C(NCCc2cc(Br)c(O)c(Br)c2)C(=O)c2ncccc21 |  |  | BALB/c mice, K7M2 lung metastasis, lung | dose not given |  | metastatic foci number | decreased |
| COc1cc(CC(=O)NCC(NC(=O)C(CCCNC(=O)c2cccc(I)c2)NC(=O)C(Cc2ccc(C(F)(F)P(=O)(O)O)cc2)NC(=O)c2ccc(C)c(Br)c2)C(N)=O)ccc1O (stereo not shown) |  | immunoblot | diet-induced obese mouse, liver, muscle, white adipose | 2 weeks, with: insulin bolus, 3 min |  | Akt Ser473 phosphorylation increase | 40 to 60% |
| CCN1CCN(Cc2ccc(NC(=O)c3ccc(C)c(Oc4ncnc5cc(OC)c(OC)cc45)c3)cc2C(F)(F)F)CC1 | Tyrosine-protein kinase Fgr (FGR, Homo sapiens, UniProt P09769) | in vitro kinase |  | lower bound | reference: other kinases IC50 over FGR | selectivity ratio | > 1000 fold |
| CCCCCCCCCCCCCC=C[C@@H](O)[C@H](CO[C@@H]1O[C@H](CO)[C@@H](O[C@@H]2O[C@H](CO)[C@H](O)[C@H](O[C@]3(C(=O)O)C[C@H](O)[C@@H](NC(C)=O)[C@H]([C@H](O)[C@@H](CO)O[C@]4(C(=O)O)C[C@H](O)[C@@H](NC(C)=O)[C@H]([C@H](O)[C@H](O)CO)O4)O3)[C@H]2O)[C@H](O)[C@H]1O)NC(=O)CCCCCCCCCCCCCCCCC |  | item: IFN-γ | C57BL/6 mouse, serum | intravenous, with: α-GalCer 1 µg |  | half-maximal inhibitory dose | 0.3 µg |
| Fc1cccc(-n2cnc3c(NCc4nc5cc(Cl)ccc5[nH]4)nc(N4CCNCC4)nc32)c1 | FLT3 N841L | KINOMEscan competition binding |  | 10 µM | reference: control | remaining binding | 13% |
| C[C@H]1CCCN1Cc1cc2cnc(NC(=O)c3ccc4c(cnn4C)c3)cc2[nH]1 |  |  | MV4;11 cells, NSG mouse, disseminated xenograft, peripheral blood | dose not given, day 49 post transplantation |  | human CD45+ leukaemia cells | 0 to 1.6% |
| COc1ccc(OC[C@H]2c3cccn3CC(=O)N2Cc2cccc(F)c2)cc1 |  |  | CA1 stratum radiatum interneurons, mouse, hippocampal slice | 10 µM | reference: baseline | NMDAR EPSC increase | ~50% |
| Cc1c(O)cc2c(c1C)O[C@](C)(CCCC(C)C)CC2 |  | item: MDM2, IKKα | athymic nude mouse, PC-3-luc xenograft, tumour | intraperitoneal, 50 mg/kg daily, 21 days |  | phosphorylation | decreased |
| CC[C@@H]1C(=O)N(C)c2cnc(Nc3ccc(C(=O)NC4CCN(C)CC4)cc3OC)nc2N1C1CCCC1 | SWI/SNF-related matrix-associated actin-dependent regulator of chromatin subfamily A member 4 (SMARCA4, Homo sapiens, UniProt P51532) | thermal stability |  | 10 µM |  | ΔTm | -0.24 ± 0.02 °C |
| COc1cccc(Cc2c(C)c(C)nn(CC(=O)Nc3ccc(Br)cc3)c2=O)c1 |  | incapacitance test | rat, CFA-induced arthritis | oral, 30 mg/kg, day 14, 15 to 60 min |  | weight bearing difference | 48.1 ± 1.05 g |
| O=C(Nc1cccnn1)N1CC(Oc2ccc(-c3ccccc3F)cn2)C1 |  | item: plasma AEA, OEA and PEA | human, plasma | oral, at maximum increase in endocannabinoids, repeated dosing |  | plasma concentration of compound | ≥ 300 ng/mL |
| O=C(/C=C/c1nc2ccccc2[nH]1)c1c(-c2ccccc2)c2cc(Cl)ccc2[nH]c1=O |  |  | nude mouse, UACC-903 xenograft | oral gavage, 100 mg/kg, 3 times weekly | reference: vehicle | tumour size reduction | > 2 fold |
| Fc1cc(-c2ccc3c(n2)[nH]c2ccncc23)ccn1 [isotope labelled] | Microtubule-associated protein tau, paired helical filaments (MAPT, Homo sapiens, UniProt P10636) | radioligand binding | PHF tau brain homogenate | 1.29 nM | higher = more binding | specific binding | 1.41 a.u. |
| Nc1ccc([N+](=O)[O-])cc1-c1nc2cc(Cl)ccc2n(Cc2ccccc2)c1=O |  |  | mouse loperamide-induced constipation |  |  | laxative efficacy | no effect |
